# Published values from different studies.
# Protocols differ between the studies behind these lines. Several values in a cell are separate wells, animals, samples, runs or records. Numbers after ± are the reported error.
# rep main protease: Replicase polyprotein 1ab, main protease (rep, Severe acute respiratory syndrome coronavirus 2, UniProt P0DTD1)
# rep papain-like protease: Replicase polyprotein 1ab, papain-like protease (rep, Severe acute respiratory syndrome coronavirus 2, UniProt P0DTD1)
Structure (SMILES),tested on,assay,test system,setting,scale,endpoint,value
CN(C)C(=O)CCCNC(=O)C[C@H](Cc1ccc(F)cc1)NC(=O)[C@@H](Cc1ccc(Cl)cc1Cl)NC(=O)[C@H](N)Cc1ccccc1C#N,rep main protease,"enzyme activity, inhibitor",,,,IC50,80 nM
Cc1ccc(OCCN(C)C)cc1C(=O)N[C@H](C)c1cc(-c2cnn(C)c2)cc(-c2cnn(CC(N)=O)c2)c1,rep papain-like protease,"protease activity, inhibitor",FlipGFP reporter cells,,,EC50,> 10000 nM
N#CCCNC(=O)C[C@H](Cc1ccc(F)cc1)NC(=O)[C@@H](Cc1ccc(Cl)cc1Cl)NC(=O)[C@H](N)Cc1ccccc1C#N,rep main protease,"enzyme activity, inhibitor",,,,IC50,100 nM
O=C(NC1CCN(c2ncnc3[nH]cnc23)CC1)c1cccc(S(=O)(=O)Nc2ccc(Cl)cc2)c1,SARS-CoV-2,viral replication,Wuhan-Hu-1,,,EC50,1400 nM
O=C(Nc1ccc2nc3c(=O)[nH]c(=O)[nH]c3nc2c1)C(F)(F)F,"Replicase polyprotein 1ab, nsp3 Mac1 domain (rep, Severe acute respiratory syndrome coronavirus 2, UniProt P0DTD1)",,,,,Kd,1640 ± 700 nM
Oc1nc(/C=C/c2ccc(Cl)cc2Cl)cc(C(F)(F)F)n1,"Replicase polyprotein 1ab, nsp16 with nsp10 (rep, Severe acute respiratory syndrome coronavirus 2, UniProt P0DTD1)",irreversible inhibitor,,,,Ki,26000 nM
O=C(NC1CCN(c2ncnc3[nH]cnc23)CC1)c1cccc(NS(=O)(=O)c2ccc(Cl)cc2)c1,SARS-CoV-2,,Wuhan-Hu-1,200 µM,relative to: untreated infected cells,relative infection,15.3%
Cc1ccc(OCCN(C)C)cc1C(=O)N[C@H](C)c1cc(-c2cnn(CC(N)=O)c2)cc(-c2cccs2)c1,rep papain-like protease,"protease activity, inhibitor",FlipGFP reporter cells,,,EC50,> 10000 nM
Clc1nc2ccccc2cc1/C=N/c1cc(Br)ccn1,rep main protease,inhibitor,,,,Ki,< 2000 nM and 1820 nM
N#Cc1ccccc1C[C@@H](N)C(=O)N[C@H](Cc1ccc(Cl)cc1Cl)C(=O)N[C@H](CC(=O)NCCCS(N)(=O)=O)Cc1ccc(F)cc1,rep main protease,"enzyme activity, inhibitor",,,,IC50,200 nM
COCCn1cc(-c2cc(-c3cnn(CC(N)=O)c3)cc([C@@H](C)NC(=O)c3cc(OCCN(C)C)ccc3C)c2)cn1,rep papain-like protease,"protease activity, inhibitor",FlipGFP reporter cells,,,EC50,> 10000 nM

# A few entries again:
Structure (SMILES),tested on,assay,test system,setting,scale,endpoint,value
Clc1nc2ccccc2cc1/C=N/c1cc(Br)ccn1,rep main protease,inhibitor,,,,Ki,< 2000 nM and 1820 nM
O=C(Nc1ccc2nc3c(=O)[nH]c(=O)[nH]c3nc2c1)C(F)(F)F,"Replicase polyprotein 1ab, nsp3 Mac1 domain (rep, Severe acute respiratory syndrome coronavirus 2, UniProt P0DTD1)",,,,,Kd,1640 ± 700 nM
